Experimental data from different studies.
Each numbered part is a random draw from the data of one study; scales do not carry over between parts.

Set 1 — method: protein-binding microarray; form: double-stranded DNA, one strand shown; matrix: in vitro; concentration: 250 nM; setting: 60-bp whole probe; with: salmon DNA 0.4 mg/ml; baseline: random background probes; reading: higher = stronger binding
Target: Interferon regulatory factor 5, full length, phosphomimetic (IRF5, Homo sapiens, UniProt Q13568-2, residues 1-514, K96S/S451D/S453D/S456D/S462D)
Oligonucleotide	log fluorescence [z-score]
GCCTAGCACGGCCATTTCCCTTGCCGCGCGTGCTAGGTCTTGATTCGCTTGACGCTGCTG	-0.0937
GCCTAGCACAACTCTCTAATTTTGAGACTGTGCTAGGTCTTGATTCGCTTGACGCTGCTG	0.241
GCCTAGCACTCATGTGTACATCTCTCACTGTGCTAGGTCTTGATTCGCTTGACGCTGCTG	0.119
GCCTAGCACTCAGCTCCCTTTCTCTCACTGTGCTAGGTCTTGATTCGCTTGACGCTGCTG	0.692

Set 2 — method: protein binding microarray; form: double-stranded DNA, one strand shown; matrix: in vitro; concentration: not given; baseline: not given; reading: higher = stronger binding
Target: Histone acetyltransferase KAT6A, both winged helices, GST fusion (KAT6A, Homo sapiens, UniProt Q92794, residues 1-181)
Setting: 8-mer, flanks averaged, mean of 2 arrays, mostly near background
Residues (chain): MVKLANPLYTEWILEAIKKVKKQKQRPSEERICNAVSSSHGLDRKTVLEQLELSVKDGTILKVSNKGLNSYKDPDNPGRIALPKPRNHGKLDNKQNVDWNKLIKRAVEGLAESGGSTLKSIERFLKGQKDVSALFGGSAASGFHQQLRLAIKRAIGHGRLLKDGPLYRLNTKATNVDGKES
Oligonucleotide	E-score
CAATCACA	-0.124
GACACAAC	-0.0936
CCACCGAC	0.0214

Set 3 — method: RNA Bind-n-Seq; form: RNA; matrix: in vitro; concentration: not given; baseline: input RNA pool; reading: higher = stronger binding
Target: RING finger protein unkempt homolog, zinc fingers 1-6, GST-SBP tag (UNK, Homo sapiens, UniProt Q9C0B0, residues 30-357)
Sequence of UniProt Q9C0B0 (30-357, looked up): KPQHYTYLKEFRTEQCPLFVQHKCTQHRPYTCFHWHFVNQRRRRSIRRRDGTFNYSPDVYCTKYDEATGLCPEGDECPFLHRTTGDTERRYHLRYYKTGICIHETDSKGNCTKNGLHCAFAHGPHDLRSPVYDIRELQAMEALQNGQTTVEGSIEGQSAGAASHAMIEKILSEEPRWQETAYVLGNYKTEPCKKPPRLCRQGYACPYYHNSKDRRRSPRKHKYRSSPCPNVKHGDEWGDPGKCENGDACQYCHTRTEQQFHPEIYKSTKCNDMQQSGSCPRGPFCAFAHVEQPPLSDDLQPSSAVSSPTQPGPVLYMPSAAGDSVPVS
Setting: RNA with constant flanks, human and mouse sites, ends assumed
Oligonucleotide	bound/input enrichment
GGGAGUUCUACAGUCCGACGAUCGUGCUUUUAUUACUUUCAUCUAUACACUUCCAGUGUCGAAGGCUGGACAGAUCUGCUCACUUUAGCACUCUGGCAAUUAAACAGAACCCCCUUCUGGCAGAAGCUUAUUCGAAUUUGGGGCAACAGAGGAUUGAGCAUCA	0.38 ratio
GGGAGUUCUACAGUCCGACGAUCAACGAGGCUUCGAAAGCACACGUUAGAAGCAGAUGGAGAUGUGGCUGGGGCAUCAGGAGGACUAGAGAUGGUGGAUGUGAAAGGGAAGCCACCAUGUGGCUCUUGUCUUCAAUGGUAUCCCAACAGAGGAUUGAGCAUCA	0.186 ratio
GGGAGUUCUACAGUCCGACGAUCAGGCCACUGUGGUUGAAUUGGGAGAACCCAGACAUCAUGUCAGAGCUACUGUUUCAGAACAAUGAGAUCAUCUUUAAAAAUGGCGACGACUUACGGCAAGAUAUGUUAACCCUUCAGAUCCAACAGAGGAUUGAGCAUCA	0.106 ratio

Single results of other studies
Substance	target	assay	test system	conditions	how to read	measurement	value
PhoQ, residues 284 288 289 292 302 303 SMMNNA	PhoP, residues 12 14 15 18 19 NNFVT (Escherichia coli, UniProt P23836)	Sort-seq, measured: YFP reporter	E. coli	PhoQ-PhoP variant library, with: 10 µM Mg2+	baseline: high Mg2+ state, higher = stronger signaling	fold induction	5.19

Repeated from above (set 1):
Oligonucleotide	log fluorescence [z-score]
GCCTAGCACGGCCATTTCCCTTGCCGCGCGTGCTAGGTCTTGATTCGCTTGACGCTGCTG	-0.0937
